# Experimental data gathered from unrelated publications.
# Every numbered part comes from another study and shows a few of its results, in no order. Changes are numbered by the printed parent chain.

# Sample 1 — target: CCNA2, cyclin fold, Cln2 fusion (human); technique: yeast growth competition, sequencing; medium: yeast; setting: strong parent motif; reference: not given; reading: higher = stronger binding
# Parent: PKMYT1 docking peptide (human); SFEPRNLLSLFED; partner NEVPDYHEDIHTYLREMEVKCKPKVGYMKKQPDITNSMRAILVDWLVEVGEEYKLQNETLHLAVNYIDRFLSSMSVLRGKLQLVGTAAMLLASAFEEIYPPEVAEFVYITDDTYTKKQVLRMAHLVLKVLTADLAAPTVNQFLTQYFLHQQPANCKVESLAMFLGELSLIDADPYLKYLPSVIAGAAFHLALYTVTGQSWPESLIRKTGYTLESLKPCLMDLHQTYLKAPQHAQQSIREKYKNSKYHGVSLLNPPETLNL
Substitution,normalised enrichment score
R5C,0.854
F11P,-0.213
L7G,-1.16
L7C,-0.633
L10D,2.21
D13I,2.76
S1V,3.17
P4Q,-0.446

# Sample 2 — target: CREB3L1, bZIP domain (human); technique: DHFR protein complementation; medium: yeast; reference: wild-type JUN-FOS pair; reading: higher = stronger binding
# Setting: single substitutions, most at no-binding floor
# Parent: JUN, bZIP domain (human); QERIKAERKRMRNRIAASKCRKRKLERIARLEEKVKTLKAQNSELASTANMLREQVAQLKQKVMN; partner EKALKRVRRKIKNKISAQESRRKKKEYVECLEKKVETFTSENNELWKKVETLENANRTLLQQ
Substitution,binding fitness [natural log]
L45W,-1.59
K34C,-1.38
E54W,-1.49
R53V,-1.55
R53D,-1.42
Q41A,-1.3
L52H,-1.46
A40Y,-1.46

# Sample 3 — technique: aptamer microarray, sandwich; molecule type: DNA with 2'F-ANA; medium: in vitro; concentration: 200 nM; added: Cy3 exosite-II aptamer, 400 nM; reading: higher = stronger binding; sequence: GGTTGGTGTGGTTGG
# Target: Prothrombin, mature alpha-thrombin (F2, Homo sapiens, UniProt P00734)
# Setting: whole 15-mer aptamer, many near background
Modification,mean fluorescence intensity
2'F-ANA at 7 8 10 14 15,135 a.u.
2'F-ANA at 1 2 3 4 5 6 10 11 12 13 14 15,47.7 a.u.
2'F-ANA at 1 3 4 6 7 8 10 14 15,50.9 a.u.
2'F-ANA at 3 4 5 6 7 8 14 15,50.1 a.u.
2'F-ANA at 2 4 6 10 12 13,94.7 a.u.
2'F-ANA at 2 4 6 7 10 11 12 13 14 15,58.8 a.u.
2'F-ANA at 1 3 4 6 8 9 10 11 13 14,51.5 a.u.
2'F-ANA at 1 2 3 4 5 9 10 12 13 14 15,50.5 a.u.

# Single results of other studies
Sequence,target,observed,molecule type,concentration,measurement,value
HTQAIEGAW,"HLA class I histocompatibility antigen, A alpha chain, allele A*80:01 (Homo sapiens, UniProt P04439)",peptide-MHC binding,peptide,concentration not given,binding,inactive

# Excerpt of the above (sample 3):
Modification,mean fluorescence intensity
2'F-ANA at 7 8 10 14 15,135 a.u.
2'F-ANA at 1 2 3 4 5 6 10 11 12 13 14 15,47.7 a.u.
